Assay results gathered from unrelated publications.
± gives the spread as reported.
Method: steady-state kinetics
B1: WlbA (Thermus thermophilus, UniProt Q72KX8); chain MTRFALTGLAGYIAPRHLKAIKEVGGVLVASLDPATNVGLVDSFFPEAEFFTEPEAFEAYLEDLRDRGEGVDYLSIASPNHLHYPQIRMALRLGANALSEKPLVLWPEEIARLKELEARTGRRVYTVLQLRVHPSLLALKERLGQEKGAKDVVLTYVTGRGKWYGKSWKVDEAKSGGLATNIGIHFFDLLAWLFGRALHVEVHARTPTVNAGYLELEGARVRWFLSIDPSFVPEPLRRQGKRTYRSIAVDGEEVEFSEGFTDLHTEVYRKTLAGEGFGLDEAAEAIRVAALLRTLPLSQPSPENRHPFLG
B2: protein (Cecembia lonarensis, UniProt K1KZY4); chain QVQYNPEKPARPEDHKPFFYKYNTRQLYEKFSDDLMQRAANDRKEIEKINQLGKYKPKKQSLDEHEVPEWFRDAKLGIFLDWGPWSVPGYAPPGSEGDTGGSYPDWYEFLMDFTYKAYHDSIWGEDFRRDDFLPLLHGNNFDSEEYAELAVQAGAKYMVPFARHHAGWTMWESKYTFRNAVEMGPKRDILKELVEASRKRDLKFGFYFSIAEWEYPVITKERVSQWDPYEDMAIFHDGMGLIPRPVPLASYFPARHDRMISGKIPVKDYFGDYMMPLFKEGVDLFDPDLVWYDGGWGTPANSSRVPELSAYFYNQAEGRKEVVINNRAGAYLDDSNLLKFNEVLKSGEHDKLLELYMKAEQIGDYLTPEYSIGNVDINEPWEVCRSISPAFGFNWTDNEENSLSSKELVKMFVGIVANNGNLLLVINPDGSGKLSNVQKDRLLDLGQWLKVNGEGIYSTRPWEIQESEGNFFTKSKNGEFIYIHILDKEKTTIEVPNLNPKNKGAISILGSKEKVLWENSGPITRITIPESFKDERNWPNKYGFTLKVAVK
B3: cyc1 F95M (Streptomyces coelicolor, UniProt Q9K499); chain MHAFPHGTTATPTAIAVPPSLRLPVIEAAFPRQLHPYWPKLQETTRTWLLEKRLMPADKVEEYADGLCYTDLMAGYYLGAPDEVLQAIADYSAWMFVWDDRHDRDIVHGRAGAWRRLRGLLHTALDSPGDHLHHEDTLVAGFADSVRRLYAFLPATWNARFARHFHTVIEAYDREFHNRTRGIVPGVEEYLELRRLTFAHWIWTDLLEPSSGCELPDAVRKHPAYRRAALLSQEFAAWYNDLCSLPKEIAGDEVHNLGISLITHHSLTLEEAIGEVRRRVEECITEFLAVERDALRFADELADGTVRGKELSGAVRANVGNMRNWFSSVYWFHHESGRYMVDSWDDRSTPPYVNNEAAGEK
B4: ASRGL1 (Homo sapiens, UniProt Q7L266); chain 1 MNPIVVVHGGGAGPISKDRKERVHQGMVRAATVGYGILREGGSAVDAVEGAVVALEDDPEFNAGCGSVLNTNGEVEMDASIMDGKDLSAGAVSAVQCIANPIKLARLVMEKTPHCFLTDQGAAQFAAAMGVPEIPGEKLVTERNKKRLEKEKHEKGAQKTDCQKNLG; chain 2 TVGAVALDCKGNVAYATSTGGIVNKMVGRVGDSPCLGAGGYADNDIGAVSTTGHGESILKVNLARLTLFHIEQGKTVEEAADLSLGYMKSRVKGLGGLIVVSKTGDWVAKWTSTSMPWAAAKDGKLHFGIDPDDTTITDLP
B5: FNO G29W (Thermobifida fusca, UniProt Q47RA9); chain MIMIMASKSSPHDLPDVSGLSIAVLGGTWDQGRGLARRFAMAGHEVILGSRSAERAQAVAAELGEGLPVRGMDNAGAAEAGDVVIVAVPWDGHRALLESLKDVLAGKIVVDCVNPLGFDKRGAYALPVEEGSAAEQAAAILPDSRVVAAFHHVSAVLLLDPEVEKVDLDVLVLGDDREATDVVRALAARIPGVRGVYGGRLRNAHQVEAFTANLISINRRYKAHAGIRITDI
B6: protein (Rheum palmatum, UniProt A0A7L9A2S6); chain MKKTELVFLPAPAPGHLVSTVEFSKRLIARDARLTVTILVISSPFSRGAQTNPSPGIRYVTLPQVDVPQHLMKDSIEHTISVYIASHAPHVRDAVAALQTESTVHVAGLFLDMFCTPMIDVANELGLPSYVFFCSSAGFLGLLLHLPVHSQPRFDETGLDVLIPSFQNPVPTRVLPRFGFNELGYKSFMDHAKRFGETKGIIINTYAELEPYALKSLLDAYDTAPVYAVGPVLDLRSQVHMPCDAAERARIMGWLDKQPDSSVVFLCFGSGGSFSEHQIREISKGLSQSGQRFLWSVRKPPTGGLVKPTEYTETELRSVLGDEFWSLLDEGERGVVCGWAPQVEVLGHKSVGAFVSHCGWNSTLESLWFGKPMVTWPLYAEQQMNAFELVKELGIAVELTLDYRLHSSEVVEAREVERAVRRVMDENNPVRYKVKEMAEVCRATLVEGGSSFVCVDRLISGFLGEIN
B7: Paox H64N (Mus musculus, UniProt Q8C0L6); chain MAFPGPRVLVVGSGIAGLGAAQKLCSHRAAPHLRVLEATASAGGRIRSERCFGGVVELGAHWINGPSQDNPVFQLAAEFGLLGEKELSEENQLVDTGGHVALPSMIWSSSGTSVSLELMTEMARLFYGLIERTREFLNESETPMASVGEFLKKEISQQVASWTEDDEDTRKRKLAILNTFFNIECCVSGTHSMDLVALAPFGEYTVLPGLDCILAGGYQGLTDRILASLPKDTVAFDKPVKTIHWNGSFQEAAFPGETFPVLVECEDGARLPAHHVIVTVPLGFLKEHQDTFFEPPLPAKKAEAIKKLGFGTNNKIFLEFEEPFWEPDCQFIQVVWEDTSPLQDTALSLQDTWFKKLIGFLVQPSFESSHVLCGFIAGLESEFMETLSDEEVLLSLTQVLRRVTGNPQLPAAKSVRRSQWHSAPYTRGSYSYVAVGSTGDDLDLMAQPLPEDGTGTQLQVLFAGEATHRTFYSTTHGALLSGWREADRLVSLWDSQVEQSRPRL
B8: enzyme (Comamonas testosteroni, UniProt B7WQT1); chain MMTHEENELLCRVEGDAPMGRLMRRHWTPICLVEEVGEPDGTPVKARAFGEDLVVFRDSEGRVGVMDEYCPHRRASLVYGRNEEGGLRCLYHGWKMDVDGNVLEMASEPAASGMVDKVKHTAYPTQEWAGMVWAYMGPKETMPEFLPPAWAPTADTRVSIAKVLLPCNWAQILEGAIDSAHSSSLHSSDMVPARVDGAKATDKTWLRPSTDKAPRMQVQRTGYGFRYAALRRPLSNAAENDYVRSTVFVAPATALIPPNNLYNVANINVPMDDTNTAFYFIAWGHPSQTPETETWRKFLRQTVGVDLDQNYRPLRNEANKFWQDRNAMKAGNFTGITGFPNQDVAMWLTMGPIADRTHDRLGASDLAIVEFRKQMLDAVKAFEQGAPAIGTGVEAATPTVCSFQAIVPKTTDWRTYDAHYVWLDGQDRPEFEPSYSVKS
B9: RbgA (Bacillus subtilis, UniProt O31743); chain MTIQWFPGHMAKARREVTEKLKLIDIVYELVDARIPMSSRNPMIEDILKNKPRIMLLNKADKADAAVTQQWKEHFENQGIRSLSINSVNGQGLNQIVPASKEILQEKFDRMRAKGVKPRAIRALIIGIPNVGKSTLINRLAKKNIAKTGDRPGITTSQQWVKVGKELELLDTPGILWPKFEDELVGLRLAVTGAIKDSIINLQDVAVFGLRFLEEHYPERLKERYGLDEIPEDIAELFDAIGEKRGCLMSGGLINYDKTTEVIIRDIRTEKFGRLSFEQPTM
B10: enzyme (Brachypodium distachyon, UniProt I1HY48); chain MGSIASEERTVTGWAARDADGHLSPYTYTLRKTGPEDVLVKVLYCGICHTDIHQAKNHLGASKYPMVPGHEVVGEVVEVGGEVSKYSAGDVVGVGVIVGCCRECRPCKASVEQYCNKRIWSYNDVYTDGRPTQGGFSSAMVVDQKFVVRIPAGLAPEQAAPLLCAGVTVYSPLKHFGLMSPGLRGGILGLGGVGHMGVKVAKSMGHHVTVISSSGKKRAEAMDDLGADAYLVSSDADQMAAAADSLDYVIDTVPVKHPLEPYLSLLKMDGKLVLMGVIGEPLSFVSPMVMLGRKSITGSFIGSMEETEEVLKFCVEKGLTSQIEVVKMDYLNEALERLERNDVRYRFVVDVAGSKIEDAA
B11: Nudt8 (Mus musculus, UniProt Q9CR24); chain MLPDGLSAEDEQRCRQLLARTTARLRSRPAAAAVLVPLCLVRGVPALLYTLRSSRLVGRHKGEVSFPGGKCDPDDQDVIHTALRETQEELGLEVPKEHVWGVLQPVYDREKATIVPVLANVGPLDLQSLRPNLEEVDEVFEMSLAHLLQTQNQGYTHFCQGGHFSYTLPVFLHGPHRVWGLTAVITELTLKLLAPGFYQPSLAVPELPRG
B12: iodotyrosine deiodinase (Haliscomenobacter hydrossis, UniProt F4KU78); chain MKQKPAFIPYAGAQFEPEEMLSKSAEYYQFMDHRRTVREFSNRAIPLEVIENIVMTASTAPSGAHKQPWTFVVVSDPQIKAKIRQAAEKEEFESYNGRMSNEWLEDLQPFGTDWHKPFLEIAPYLIVVFRKAYDVLPDGTQRKNYYVQESVGIACGFLLAAIHQAGLVALTHTPSPMNFLQKILQRPENERPFLLVPVGYPAEGAMVPDLQRKDKAAVMVVY
B13: HCT R356E (Coleus scutellarioides, UniProt E8ZAP2); chain MKIHVRDSTLVRPSAATPAVSLWNSNVDLVVPNFHTPSVYFYRPSGADNFFDTAVMKAALGRALVSFYPMAGRLKRDEDGRVEIDCNAEGVLFVEAESDGTVDDYGDFAPSLELRRLIPAVDYSQGISAYPLLVLQVTFFKCGGVSLGVGMQHHAADGFSGLHFINTWSDMARGLDITLPPFIDRTLLSARDPPQPQFKHVEYQPPPAMKTYEPAETVVSIFKLTKDQLTTLKAKSKEDGNTTTYSSYEMLSGHVWRCTCLARGLPEEQETKLYIATDGRSRLQPQLPPGYFGNVIFTATPLAVAGDLGSKPVWYAASKIHDALARMDNDYLRSALDFLELQPDLKALVRGAHTFECPNLGITSWVRLPIHDADFGWGRPIFMGPGGIAYEGLSFVLPSPTNDGSLSVAISLQAEHMKLFEKLLYQI
UniProt P08253, sequence (whole entry, looked up): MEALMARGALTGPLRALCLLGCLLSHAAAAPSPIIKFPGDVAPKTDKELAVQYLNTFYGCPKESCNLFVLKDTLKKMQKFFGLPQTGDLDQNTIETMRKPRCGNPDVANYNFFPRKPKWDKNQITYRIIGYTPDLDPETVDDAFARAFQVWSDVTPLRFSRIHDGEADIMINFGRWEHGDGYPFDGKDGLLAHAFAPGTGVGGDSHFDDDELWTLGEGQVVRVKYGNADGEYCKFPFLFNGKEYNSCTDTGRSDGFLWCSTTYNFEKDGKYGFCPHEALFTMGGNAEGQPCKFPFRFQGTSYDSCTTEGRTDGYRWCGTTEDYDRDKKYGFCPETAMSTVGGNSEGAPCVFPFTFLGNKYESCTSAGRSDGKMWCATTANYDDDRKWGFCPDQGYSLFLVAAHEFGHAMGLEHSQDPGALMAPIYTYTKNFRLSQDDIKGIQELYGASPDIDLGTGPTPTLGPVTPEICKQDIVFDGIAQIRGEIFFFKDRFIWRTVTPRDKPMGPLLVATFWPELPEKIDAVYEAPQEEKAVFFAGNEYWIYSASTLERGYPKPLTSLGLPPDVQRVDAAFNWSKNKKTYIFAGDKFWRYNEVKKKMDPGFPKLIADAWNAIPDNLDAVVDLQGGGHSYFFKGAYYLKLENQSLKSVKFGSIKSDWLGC
UniProt P07914, sequence (whole entry, looked up): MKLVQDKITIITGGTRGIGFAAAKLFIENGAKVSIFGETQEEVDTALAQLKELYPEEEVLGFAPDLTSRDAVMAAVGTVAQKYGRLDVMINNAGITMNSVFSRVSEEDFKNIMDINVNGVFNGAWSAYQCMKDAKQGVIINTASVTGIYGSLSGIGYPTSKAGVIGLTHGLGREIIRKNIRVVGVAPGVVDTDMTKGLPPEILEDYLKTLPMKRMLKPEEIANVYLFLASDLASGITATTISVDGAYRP

B1 (WlbA)
kcat/Km (CC(=O)N[C@H]1[C@@H](OP(=O)(O)OP(=O)(O)OC[C@H]2O[C@@H](n3ccc(=O)[nH]c3=O)[C@H](O)[C@@H]2O)O[C@H](C(=O)O)[C@@H](O)[C@@H]1O; pH 8.5, 25 °C, with: enzyme-bound NAD(H)): 560000 M⁻¹ s⁻¹

B2 (protein)
kcat/Km (C[C@@H]1O[C@@H](Oc2ccc([N+](=O)[O-])cc2)[C@@H](O)[C@H](O)[C@H]1O; pH 5.5, 35 °C): 7350 ± 470 M⁻¹ s⁻¹

B3 (cyc1 F95M)
kcat/Km (CC(C)=CCC/C(C)=C/CC/C(C)=C/CO[P@@](=O)(O)OP(=O)(O)O; pH 6.5, 30 °C, with: MgCl2 10 mM): 11500 ± 500 M⁻¹ s⁻¹

B4 (ASRGL1)
kcat/Km (C[C@H](NC(=O)C[C@H](N)C(=O)O)C(=O)O; pH 7.4, 37 °C, NaCl 100 mM): 6000 ± 800 M⁻¹ s⁻¹

B5 (FNO G29W)
kcat/Km (CC(=O)c1ccc[n+](Cc2ccccc2)c1; pH 8, 25 °C, with: F420H2 40 µM): 568 ± 97 M⁻¹ s⁻¹

B6 (protein)
kcat/Km (O=c1c(O)c(-c2ccc(O)cc2)oc2cc(O)cc(O)c12; pH 7.5, 35 °C, apparent, with: UDP-glucose): 10.4 M⁻¹ s⁻¹

protein I23F/S203N/S29F (Manduca sexta, UniProt Q8I8Y1)
kcat/Km (Oc1ccc(O)cc1; pH 7): 13.3 M⁻¹ s⁻¹

B7 (Paox H64N)
kcat/Km (CC(=O)NCCCNCCCCNCCCN; pH 10, 30 °C): 17000 ± 1000 M⁻¹ s⁻¹

B8 (enzyme)
kcat/Km (O=C(O)c1ccccc1C(=O)O; pH 8, 25 °C, apparent): 583000 ± 87000 M⁻¹ s⁻¹

B9 (RbgA)
kcat/Km (Nc1nc2c(ncn2[C@@H]2O[C@H](COP(=O)(O)OP(=O)(O)OP(=O)(O)O)[C@@H](O)[C@H]2O)c(=O)[nH]1; pH 7.5, 37 °C, KCl 200 mM, free enzyme, apparent, with: GTP 0-1 mM): 27.8 M⁻¹ s⁻¹

B10 (enzyme)
kcat/Km (NC(=O)c1ccc[n+]([C@@H]2O[C@H](COP(=O)(O)OP(=O)(O)OC[C@H]3O[C@@H](n4cnc5c(N)ncnc54)[C@H](OP(=O)(O)O)[C@@H]3O)[C@@H](O)[C@H]2O)c1; pH 8.8, 23 °C, cofactor varied): 1.37e+07 M⁻¹ s⁻¹

BaiA1 (Clostridium scindens, UniProt P07914)
kcat/Km (NC(=O)c1ccc[n+]([C@@H]2O[C@H](COP(=O)(O)OP(=O)(O)OC[C@H]3O[C@@H](n4cnc5c(N)ncnc54)[C@H](OP(=O)(O)O)[C@@H]3O)[C@@H](O)[C@H]2O)c1; pH 8.7, 37 °C, cofactor varied, with: glycocholic acid 1.4 mM): 133 M⁻¹ s⁻¹

B11 (Nudt8)
kcat/Km (CC(C)(COP(=O)(O)OP(=O)(O)OC[C@H]1O[C@@H](n2cnc3c(N)ncnc32)[C@H](O)[C@@H]1OP(=O)(O)O)[C@@H](O)C(=O)NCCC(=O)NCCS; pH 8.5, with: 2 mM Mn2+): 24000 M⁻¹ s⁻¹

AphC (Rhodococcus jostii, UniProt Q0S9X1)
kcat/Km (Cc1ccc(O)c(O)c1; pH 8, 25 °C, apparent, with: O2): 103000 M⁻¹ s⁻¹

MMP2 (Homo sapiens, UniProt P08253)
kcat/Km (CC(=O)N[C@@H](CCC(N)=O)C(=O)N1CCC[C@H]1C(=O)N[C@@H](CCC(N)=O)C(=O)NCC(=O)N[C@@H](CC(C)C)C(=O)N[C@@H](C)C(=O)N[C@@H](CCCCN)C(N)=O): 18000 M⁻¹ s⁻¹

B12 (iodotyrosine deiodinase)
kcat/Km (N#Cc1cc(C[C@H](N)C(=O)O)cc(I)c1O; pH 7.4, 25 °C): 500 ± 200 M⁻¹ s⁻¹

B13 (HCT R356E)
kcat/Km (NCc1ccc(O)c(O)c1; pH 8, pseudo-first-order, with: p-coumaroyl CoA): 410 ± 51.8 M⁻¹ s⁻¹

enzyme (Plasmodium falciparum, UniProt Q8ILK1)
kcat/Km (C[S+](CC[C@H](N)C(=O)[O-])C[C@H]1O[C@@H](n2cnc3c(N)ncnc32)[C@H](O)[C@@H]1O; 37 °C): 9830 M⁻¹ s⁻¹

Some of these lines once more:
B12 (iodotyrosine deiodinase)
kcat/Km (N#Cc1cc(C[C@H](N)C(=O)O)cc(I)c1O; pH 7.4, 25 °C): 500 ± 200 M⁻¹ s⁻¹

B13 (HCT R356E)
kcat/Km (NCc1ccc(O)c(O)c1; pH 8, pseudo-first-order, with: p-coumaroyl CoA): 410 ± 51.8 M⁻¹ s⁻¹
